Assay results of several laboratories.
Protocols differ between the studies behind these lines.
Organism: Pseudomonas aeruginosa

SMILES	technique	strain	medium	time	temperature	setting	MIC
CC(C)Oc1c(-n2cc(-c3ccc(NC(=O)C(CC(N)=O)NC(=O)c4ccc(NC(=O)c5ccc(C#N)cc5)cc4)cc3)nn2)ccc(C(=O)Nc2ccc(C(=O)O)cc2)c1O (centres unmarked)	–	PA14 ΔmexAB	–	–	–	–	2 µg/mL
N=C(N)c1cccc(OCc2ccc(COc3cccc(C(=N)N)c3)cc2)c1	–	ATCC 27853	–	–	–	compound alone	> 200 µg/mL
C[C@@H](O)[C@H]1C(=O)N2C(C(=O)O)=C(S[C@@H]3CN[C@H](C(=O)N(C)C)C3)[C@H](C)[C@H]12	–	27853	–	–	–	–	< 2 µg/mL
NC[C@H]1O[C@H](O[C@H]2[C@H](O)[C@@H](O[C@H]3O[C@H](CO)[C@@H](O)[C@H](N)[C@H]3O)[C@H](N)C[C@@H]2N)[C@H](O)[C@@H](O)[C@@H]1O	broth microdilution	PAO1	cation-adjusted Mueller-Hinton broth	16 h	37 °C	–	32 µg/mL
CC1(C)S[C@@H]2[C@H](NC(=O)[C@H](N)c3ccc(O)cc3)C(=O)N2[C@H]1C(=O)O	broth microdilution	clinical isolate	Mueller-Hinton broth	24 h	37 °C	–	> 400 µM
NCCCC[C@H](NC(=O)[C@H](Cc1ccccc1)NC(=O)[C@H](CCC(N)=O)NC(=O)[C@H](Cc1ccccc1)NC(=O)[C@H](CCC(N)=O)NC(=O)[C@@H](N)Cc1ccccc1)C(N)=O	broth microdilution, optical density	–	–	–	–	–	520 µM
O=C(Cc1ccccc1)N[C@@H]1C(=O)N2C(C(=O)O)=C(CSc3cccc4cccnc34)CS(=O)(=O)[C@H]12	–	27853	–	–	–	–	> 128 µg/mL
O=C(O)c1cn(C2CC2)c2cc(N3CCNCC3)c(F)cc2c1=O	–	CIP 27853	Mueller Hinton broth	overnight	37 °C	–	> 512 µg/mL
O=[N+]([O-])c1ccc(O)c2ncccc12	–	–	–	–	–	–	> 100 µM
Cc1cc(C(=O)Nc2ccc(C(=O)N[C@@H](CC(N)=O)C(=O)Nc3ccc(C(=O)Nc4ccc(C(=O)Nc5ccc(C(=O)O)cc5)c(O)c4OC(C)C)cc3)cc2)ccc1C#N	–	PA14 ΔmexAB	–	–	–	–	0.5 µg/mL
[H]/N=C(/N)N[C@H]1[C@H](O)[C@@H](O)[C@H](O[C@@H]2O[C@@H](C)[C@](O)(C=O)[C@H]2O[C@@H]2O[C@@H](CO)[C@H](O)[C@@H](O)[C@@H]2NC)[C@@H](N/C(N)=N\[H])[C@@H]1O	–	CIP 27853	Mueller Hinton broth	overnight	37 °C	–	> 512 µg/mL
CN(C)c1ccc2nc3ccc(=[N+](C)C)cc-3sc2c1	–	ATCC BAA-2108, resistant	–	18 h	37 °C	dark	> 128 µM
NC[C@H]1O[C@H](O[C@H]2[C@H](O)[C@@H](O[C@H]3O[C@H](CO)[C@@H](O)[C@H](N)[C@H]3O)[C@H](N)C[C@@H]2N)[C@H](O)[C@@H](O)[C@@H]1O	broth microdilution	C5 clinical isolate	–	–	–	–	32 µM
C=C/C=C(\C)CC[C@H]1C[C@H](O)CC(=O)O1	broth microdilution	KCCM 11321	–	16 h	37 °C	–	64 µg/mL
CNC(C)C1CCC(N)C(OC2C(N)CC(N)C(OC3OCC(C)(O)C(NC)C3O)C2O)O1 (centres unmarked)	–	clinical isolate RKI-No_493/15	–	–	–	–	> 8 µg/mL
c1ccc2[nH]c(CNCC34CC5CC(CC(C5)C3)C4)nc2c1	–	ATCC 27853	–	–	–	–	> 128 µg/mL
CC[C@H](C)CCCCC(=O)N[C@@H](CCN)C(=O)N[C@H](C(=O)N[C@@H](CCN)C(=O)N[C@H]1CCNC(=O)[C@H]([C@@H](C)O)NC(=O)[C@H](CCN)NC(=O)[C@H](CCN)NC(=O)[C@H](CC(C)C)NC(=O)[C@@H](CC(C)C)NC(=O)[C@H](CCN)NC1=O)[C@@H](C)O	broth microdilution	ATCC 27853	cation-adjusted Mueller-Hinton broth	–	–	–	0.428 µM
CC1(C)S[C@@H]2[C@H](NC(=O)[C@H](N)c3ccccc3)C(=O)N2[C@H]1C(=O)O	–	ATCC 27853	–	18 h	37 °C	LED irradiation 10 min	> 128 µM
CNC(C)C1CCC(N)C(OC2C(N)CC(N)C(OC3OCC(C)(O)C(NC)C3O)C2O)O1 (centres unmarked)	broth microdilution, absorbance	clinical isolate P.A11	RPMI with 1640% FBS	24 h	37 °C	–	0.78 µM
N#Cc1ccc2[nH]c(CNCC34CC5CC(CC(C5)C3)C4)nc2c1	–	ATCC 27853	–	–	–	–	> 128 µg/mL
C[C@@H](O)[C@H]1C(=O)N2C(C(=O)O)=C(SCCN=CN)C[C@H]12	–	S13-35 PER-producing isolate	–	–	–	–	0.5 µg/mL
C[C@H](N)C(=O)N[C@H](C(=O)N[C@@H](CS)C(=O)N[C@@H](Cc1ccc(O)cc1)C(=O)N[C@@H](CS)C(=O)N[C@@H](CCCNC(=N)N)C(=O)N[C@H](C(=O)NCC(=O)N[C@@H](CCCNC(=N)N)C(=O)O)[C@@H](C)O)[C@@H](C)O	broth turbidity	ATCC 27853	–	–	–	–	50 µM
CO/N=C(\C(=O)N[C@@H]1C(=O)N2C(C(=O)O)=C(COC(C)=O)CS[C@H]12)c1csc(N)n1	broth microdilution	clinical isolate	Mueller-Hinton broth	24 h	37 °C	–	> 400 µM
CC(C)C[C@@H]1NC(=O)[C@@H](Cc2ccccc2)NC(=O)[C@H](CCN)NC(=O)[C@@H](NC(=O)[C@H](CCN)NC(=O)[C@@H](N)[C@@H](C)O)CCNC(=O)[C@H]([C@@H](C)O)NC(=O)[C@H](CCN)NC(=O)[C@H](CCN)NC1=O	–	ATCC 27853	–	–	–	compound alone	50 µg/mL
CCN1CCN(C(=O)N[C@@H](C(=O)N[C@@H]2C(=O)N3[C@@H]2SC(C)(C)[C@@H]3C(=O)O)c2ccccc2)C(=O)C1=O	–	R13-94 PER-producing isolate	–	–	–	–	> 128 µg/mL
N=C(N)c1ccc(OCCC(CCOc2ccc(C(=N)N)cc2)c2ccccc2)cc1 (centres unmarked)	–	ATCC 27853	–	–	–	compound alone	> 200 µg/mL
CC(C)(O/N=C(\C(=O)N[C@@H]1C(=O)N2C(C(=O)[O-])=C(C[n+]3ccccc3)CS[C@H]12)c1csc(N)n1)C(=O)O	–	R16-49 PER-producing isolate	–	–	–	–	> 128 µg/mL
N=C(N)c1ccc(OCc2cccc(COc3ccc(C(=N)N)cc3)c2)cc1	–	ATCC 27853	–	–	–	compound alone	> 200 µg/mL
COc1cc(C(=O)Nc2ccc(C(=O)N[C@@H](CC(N)=O)C(=O)Nc3ccc(C(=O)Nc4ccc(C(=O)Nc5ccc(C(=O)O)cc5)c(O)c4OC(C)C)cc3)cc2)ccc1C#N	–	PA14 ΔmexAB	–	–	–	–	0.25 µg/mL

Some of these lines once more:
SMILES	technique	strain	medium	time	temperature	setting	MIC
CC(C)Oc1c(-n2cc(-c3ccc(NC(=O)C(CC(N)=O)NC(=O)c4ccc(NC(=O)c5ccc(C#N)cc5)cc4)cc3)nn2)ccc(C(=O)Nc2ccc(C(=O)O)cc2)c1O (centres unmarked)	–	PA14 ΔmexAB	–	–	–	–	2 µg/mL
C[C@@H](O)[C@H]1C(=O)N2C(C(=O)O)=C(S[C@@H]3CN[C@H](C(=O)N(C)C)C3)[C@H](C)[C@H]12	–	27853	–	–	–	–	< 2 µg/mL
